Assay results pooled from the literature.
Every numbered part comes from another study and shows a few of its results, in no order.

Block 1
Target: Histone acetyltransferase KAT6A, winged helix 1, GST fusion (KAT6A, Homo sapiens, UniProt Q92794, residues 1-85)
Method: protein binding microarray
Form: double-stranded DNA, one strand shown
Matrix: in vitro
Concentration: not given
Setting: 8-mer, flanks averaged, mean of 2 arrays, mostly near background
Reference: not given
Reading: higher = stronger binding
Target sequence (chain): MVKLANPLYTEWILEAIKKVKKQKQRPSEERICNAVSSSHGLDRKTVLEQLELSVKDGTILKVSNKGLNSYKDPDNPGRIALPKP
Strand | E-score
AAGCAACG | -0.0602
AGTAAAGA | -0.0287
AACCGCGG | 0.404
CTTCCCTC | -0.12
CACGCGTC | 0.255
CACCTAAG | -0.051

Block 2
Target: Interferon regulatory factor 5, full length, phosphomimetic (IRF5, Homo sapiens, UniProt Q13568-2, residues 1-514, S451D/S453D/S456D/S462D)
Method: protein-binding microarray
Form: double-stranded DNA, one strand shown
Matrix: in vitro
Concentration: 940 nM top
Setting: 60-bp whole probe
Together with: salmon DNA 0.4 mg/ml
Reference: random background probes
Reading: higher = stronger binding
Constant ends, left off below: GCCTAGCAC … GTCTTGATTCGCTTGACGCTGCTG
Strand | fitted relative affinity
TGTACTCTCTCCATGTGTTTGTGCTAG | 1.26 z-score
GATGGACTGGGGTTTCGGGACGTGCTA | 1.84 z-score
GATGATTCCAGTTTCGAGACGTGCTAG | 4.24 z-score
GACGGTTCGCTTTTCCTGACGTGCTAG | 0.349 z-score
CACGGTTTCCTACTGCTGACGTGCTAG | 0.637 z-score
ATCTCACTCTAATCTCACTCTGTGCTA | 2.13 z-score
TTAGAATTGAGTTTCGATTAGTGCTAG | 6.83 z-score

Block 3
Target: Centromere-binding protein 1, full length, His-tagged (CBF1, Saccharomyces cerevisiae, UniProt P17106, residues 1-351)
UniProt P17106, sequence (whole entry, looked up): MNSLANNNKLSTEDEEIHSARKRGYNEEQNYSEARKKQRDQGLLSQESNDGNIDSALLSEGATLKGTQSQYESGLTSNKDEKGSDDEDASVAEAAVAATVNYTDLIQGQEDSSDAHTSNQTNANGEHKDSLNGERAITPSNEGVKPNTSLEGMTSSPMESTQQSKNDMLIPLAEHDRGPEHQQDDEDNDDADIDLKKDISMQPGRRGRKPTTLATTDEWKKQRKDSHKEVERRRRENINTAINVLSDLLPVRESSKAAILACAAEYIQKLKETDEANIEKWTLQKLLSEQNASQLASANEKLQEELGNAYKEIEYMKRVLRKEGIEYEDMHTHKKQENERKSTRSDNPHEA
Method: competition protein-binding microarray
Form: double-stranded DNA, one strand shown
Matrix: in vitro
Concentration: 2 µM
Setting: whole 60-bp probe, lowest competitor level
Together with: Pho4 competitor, 0.05 µM
Reading: higher = stronger binding
Constant ends, left off below: … GTCTTGATTCGCTTGACGCTGCTG
Strand | fluorescence intensity
TCCTTCTTTATCCCACTCATGACAATCTGCAATATA | 94.3 a.u.
CTTCTGTAAATTTGAGCTGTGGGTGGACGCGCCCCG | 81.1 a.u.
CGAGTCTAATGACTTGACGTGGCCGTTTTTCTTGTC | 72.3 a.u.
TGCGCAACAACTTTTCACGTGCCGTTATGTCTAGAA | 1320 a.u.
GTCTTGTCTCATTGTTACGTGGGTGTCCCCACTTCA | 93.2 a.u.
GCCAGAGAGTTATTTCACGTGCTTTGTTCGGCCCGC | 815 a.u.
CGCCGGAAGCGGTGCCTCGTGGCTTGGGATCTCTCC | 74.9 a.u.

Further values, each from its own experiment
Substance | target | assay | system | conditions | how to read | quantity | result
PhoQ, residues 284 288 289 292 302 303 QWGLFV | PhoP, residues 12 14 15 18 19 SPWRL (Escherichia coli, UniProt P23836) | Sort-seq, refers to: YFP reporter | E. coli | PhoQ-PhoP variant library, together with: 10 µM Mg2+ | reference: high Mg2+ state, higher = stronger signaling | fold induction | 0.737

For quick reference, copied from above (block 3):
Strand | fluorescence intensity
CGAGTCTAATGACTTGACGTGGCCGTTTTTCTTGTC | 72.3 a.u.
TGCGCAACAACTTTTCACGTGCCGTTATGTCTAGAA | 1320 a.u.
